Measurements pooled from the literature.
Lines come from different studies, so protocols differ. ± marks the error that the study gave.
Method: steady-state kinetics
B1: NUDT3 (Homo sapiens, UniProt O95989); chain MMKLKSNQTRTYDGDGYKKRAACLCFRSESEEEVLLVSSSRHPDRWIVPGGGMEPEEEPSVAAVREVCEEAGVKGTLGRLVGIFENQERKHRTYVYVLIVTEVLEDWEDSVNIGRKREWFKIEDAIKVLQYHKPVQASYFETLRQGYSANNGTPVVATTYSVSAQSSMSGIR
B2: enzyme (Saccharina japonica, UniProt A0A097IUE3); chain QQLGKTASMATVSSLGIDKATGIKNPTTVHRNLPYPEVFEHEVKHKEGEVTSNGTFCVSTGQFTGRSPKDKYFVKQAPSDKNLDWGKVNVGVAPDVFKNIYKKAVKHYNDNVEKMYVFDGYCGTSPKSRKNVRIITELAWQHHFAKNMFIRPESEAEVADFAPDFTIVNACKVVNDDYKELGLNSEVAVVFNVEERKAVITGTWYGGEMKKGIFSMMNYWLPLDGVMAMHCSANKGKNGDTALFFGLSGTGKTTLSADPDRYLIGDDEHGWDDDGIFNFEGGCYAKTINLSHKNEPEIYDAIKKDALLENVIIKGNGDPDYTDVSKTENTRVSYPIYHIDNYEPSGMGGHPNSIVFLTCDAFGVLPPVSRLSAGQAMYHFLSGYTAKVAGTERGVTEPTPNFSACFGAAFLTLHPTAYADLLQKKLDTHGTQCFLINTGWTGGGYGVGKRMSIKATRACVNSVLDGSINKTKFTADPVFGFEVPADLPGVPSKVLNPRDAWSDKESYDTTRTKLAGMFKDNFTKFVKPGVTNYTAYGPK
B3: enzyme (Schizosaccharomyces pombe, UniProt P78804); chain MSTPYEPEFQQAYKEIVGSIESSKLFEVHPELKRVLPIISIPERVLEFRVTWEDDKGNCRVNTGYRVQFNSALGPYKGGLRFHPSVNLSILKFLGFEQIFKNALTGLPMGGGKGGSDFDPKGKSDNEIRRFSQAFMRQLFRYIGPQTDVPAGDIGVTGFVVMHMFGEYKRLRNEYSGVVTGKHMLTGGSNIRPEATGYGVVYYVKHMIEHRTKGAETLKGKRVAISGSGNVAQYAALKCIQEGAIVKSISDSKGVLIAKTAEGLVPEEIHEIMALKEKRASIADSASLCKKHHYIAGARPWTNVGEIDIALPCATQNEVSGEEAAALIKQGCRYVAEGSNMGSSAEAVEVFEKSRASGEGCWLAPGKAANAGGVAVSGLEMAQNAQFSTWTHAEVDAKLAGIMQNIFEQSTDVASKYCDSGSNNIPSLVDGANIAGFLKVATAMQAVGDWW
B4: SCO6712 S292F (Streptomyces coelicolor, UniProt Q9XAL8); chain AKGITARTAPAGGEVRHLKMYAEKLADGQMGYGFEKGKASVPGPLIEVNEGDTLHIEFTNTMDVRASLHVHGLDYEISSDGTAMNKSDVEPGGTRTYTWRTHKPGRRDDGTWRPGSAGYWHYHDHVVGTEHGTGGIRNGLYGPVIVRRKGDVLPDATHTIVFNDMTINNRKPHTGPDFEATVGDRVEIVMITHGEYYHTFHMHGHRWADNRTGILTGPDDPSRVIDNKITGPADSFGFQIIAGEGVGAGAWMYHCHVQFHSDMGMVGLFLVKKPDGTIPGYEPHEHGGATAKSGESGEPTGGAAAHEHEH
B5: enzyme (Plasmodium falciparum, UniProt C0H484); chain MVREAHELLDGSRPIPIDKITYELSQNIILAFDNHENINNKDIQIEIEGRVGLVIDKNKNRIKLPINTDAIIENNYSDFQAGIDRESFEYLLDYFHNMTLKKRLSIRNNDNNNNNMDNNNNNMDNNNNIHIHNSGNNTNQTHSYDKNADDNKPTCNYSYDKKNACIYDFLELKTTKSIDKYYVIKNNNSRIRTTTYLNDDNKQETESMMIQSLQKDNLNIWNVYTGNNYDYFDDDEEDDDDDYNNNNNNNNGDTGTKTNIATNNTHGLTTSKSQHIYNNLVDKNDSIDYRISINIEYTKPISKLYLSKNTPVHERLKERTTFINTYLGLQVDMTKIKTKNNELYEVEIEIPSKTIFKAMSNLRNKKDSNYLHFICSNLVNNIRGICSQLNVFKKSKHMLKNTMITKLNNNSNNQNNLSLLPNHPNDDTISSKEKEKFKKYIHSVLPIVGDY
B6: enzyme (Pseudomonas aeruginosa, UniProt Q9I6F6); chain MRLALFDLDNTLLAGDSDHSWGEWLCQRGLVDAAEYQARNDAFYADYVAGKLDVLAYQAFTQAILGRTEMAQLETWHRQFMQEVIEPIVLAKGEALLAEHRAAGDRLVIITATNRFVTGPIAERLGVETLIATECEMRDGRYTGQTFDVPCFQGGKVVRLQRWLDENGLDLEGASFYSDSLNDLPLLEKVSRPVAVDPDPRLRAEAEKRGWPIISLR
B7: CYP4F3 A27G/C46R/I34V/M14V/R49Q/W12G (Homo sapiens, UniProt Q08477); chain MALLLAVFLLGPVAASPWLLLLLVGGSWLLARVLAWTYTFYDNCRRLQCFPQPPKRNWFLGHLGLVTPTEQGMRVLTQLVATYPQGFKVWMGPIFPVIRFCHPNIIRSVINASAAIVPKDKVFYSFLKPWLGDGLLLSAGEKWSRHRRMLTPAFHFNILKPYMKIFNESVNIMHAKWQLLASEGSARLDMFEHISLMTLDSLQKCVFSFDSHCQEKPSEYIAAILELSALVTKRHQQILLYIDFLYYLTPDGQRFRRACRLVHDFTDAVIQERRRTLPSQGVDDFLQAKAKSKTLDFIDVLLLSKDEDGKKLSDEDIRAEADTFMFEGHDTTASGLSWVLYHLAKHPEYQERCRQEVQELLKDREPKEIEWDDLAQLPFLTMCIKESLRLHPPVPAVSRCCTQDIVLPDGRVIPKGIICLISVFGTHHNPAVWPDPEVYDPFRFDPKNIKERSPLAFIPFSAGPRNCIGQAFAMAEMKVVLGLTLLRFRVLPDHTEPRRKPELVLRAEGGLWLRVEPLS
B8: enzyme C429A (Methanosarcina mazei, UniProt Q8PVB1); chain MSEQRSVPLREHLLALKPCRHGGLIQETSETYGIPENEILDFSANFNPLGSPFDYPENGLNFEDIIKKSCGKLLEYPDNRYVEFREAAARFVGLGVTPQSIVPGNGSTEIVRLVVESVIEKGDKVLLPWPTFGEYEMQCRITGAEPVCPSQEEVNTLPDEVLEEAKILFICNPNNPTGKLRTREELKVLAERCREHKTLLYVDEAFIELSDPSQSVADLPAENNYVFVMRSLTKDFAIPGIRMGFGIAPPAMADILNTARLSWNLGAIANNTGIALLNIEGGIDSPYLKKAREMILKEGETLKAKIDRIRGFEAGEVNVNFILVDVSKFMLNSSELTARLAARGVLVRDCVSFHGLGKNYIRVAVRTEKENDRLIAAIGDVITEWGREQAKNELQHVIEKASEEGIGGRKTCEYYPCHFEGQNCTFCFAPFYPCENEKTGGKWIQSSRGGRVWSCVDCHLVHKKEIAQKILDCLMHEGDTDELVKVAWKEVMEPIL

Molecule	substrate	conditions	kcat/Km [M⁻¹ s⁻¹]
B1 (NUDT3)	Nc1ncnc2c1ncn2[C@@H]1O[C@H](COP(=O)(O)OP(=O)(O)OP(=O)(O)OP(=O)(O)OP(=O)(O)OC[C@H]2O[C@@H](n3cnc4c(N)ncnc43)[C@H](O)[C@@H]2O)[C@@H](O)[C@H]1O	with: Mg2+	16
enzyme M50A (Homo sapiens, UniProt Q08623)	O=c1[nH]cc([C@@H]2O[C@H](COP(=O)(O)O)[C@@H](O)[C@H]2O)c(=O)[nH]1	pH 7, 25 °C	8330
enzyme (Rhodopseudomonas palustris, UniProt Q6N7F5)	CC(C)C(=O)O	pH 7.5, 37 °C	42000
B2 (enzyme)	Nc1ncnc2c1ncn2[C@@H]1O[C@H](COP(=O)(O)OP(=O)(O)O)[C@@H](O)[C@H]1O	pH 6.5, 25 °C, with: 16 mM PEP	290000
PYCR2 (Homo sapiens, UniProt Q96C36)	O=C(O)[C@@H]1CCC=N1	pH 7.5, 37 °C, apparent, with: NADH 500 µM	41000 ± 2000
enzyme (Acinetobacter baumannii, UniProt B7I618)	Nc1ncnc2c1ncn2[C@@H]1O[C@H](COP(=O)(O)OP(=O)(O)OP(=O)(O)O)[C@@H](O)[C@H]1O	pH 7.4, 24 °C, apparent, per site	1260
acsA D449E/I222V (Pseudomonas chlororaphis)	CCCC(=O)O	pH 7	1330 ± 167
enzyme (Salmonella enterica, UniProt P0A2K1)	N[C@@H](CO)C(=O)O	pH 7.8, 22 °C, apparent	1950
B3 (enzyme)	NC(=O)C1=CN([C@@H]2O[C@H](COP(=O)(O)OP(=O)(O)OC[C@H]3O[C@@H](n4cnc5c(N)ncnc54)[C@H](O)[C@@H]3O)[C@@H](O)[C@H]2O)C=CC1	pH 7, 30 °C, apparent	2500 ± 100
B4 (SCO6712 S292F)	CCn1c(=NN=c2sc3cc(S(=O)(=O)O)ccc3n2CC)sc2cc(S(=O)(=O)O)ccc21	pH 7, 37 °C, NaCl 150 mM, with: O2 cosubstrate	1000 ± 100
enzyme (Parabacteroides distasonis, UniProt A0A7L5EB83)	CC(=O)N[C@H]1[C@H](Oc2ccc([N+](=O)[O-])cc2)O[C@H](CO)[C@@H](O)[C@@H]1O[C@@H]1O[C@H](CO)[C@H](O)[C@H](O)[C@H]1O	pH 6, 50 °C	2120
enzyme (Bacteroides fragilis, UniProt Q5LAD6)	C[C@@H]1O[C@@H](Oc2ccc([N+](=O)[O-])cc2Cl)[C@@H](O)[C@H](O)[C@@H]1O	pH 8.4, 40 °C	243000
B5 (enzyme)	Nc1nc2c(ncn2[C@@H]2O[C@H](COP(=O)(O)OP(=O)(O)OP(=O)(O)O)[C@@H](O)[C@H]2O)c(=O)[nH]1	with: Mn2+	21000 ± 2000
B6 (enzyme)	N[C@H](COP(=O)(O)O)Cc1c[nH]cn1	pH 7.8, 25 °C	390000 ± 20000
B7	CCCCC/C=C\C[C@@H](O)/C=C/C=C/C=C\[C@@H](O)CCCC(=O)O	pH 7.4, with: LTB4	50
HNL C81L/E79H/G176S/H103V/K236M/N104A/T11G/V106F (Hevea brasiliensis)	CC(=O)Oc1ccc([N+](=O)[O-])cc1	pH 7.2, 22 °C	417
enzyme (Bacteroides ovatus, UniProt A0ABU3IP51)	O=[N+]([O-])c1ccc(O[C@H]2O[C@H](CO)[C@@H](O)[C@H](O)[C@H]2O)cc1	pH 6.6	582000
enzyme (Thermoplasma volcanium, UniProt Q978S7)	OC[C@H]1O[C@H](O[C@H]2O[C@H](CO)[C@@H](O)[C@H](O)[C@H]2O)[C@H](O)[C@@H](O)[C@@H]1O	pH 3.7, 30 °C	400
B8 (enzyme C429A)	Nc1ncnc2c1ncn2[C@@H]1O[C@H](COP(=O)(O)OP(=O)(O)OP(=O)(O)O)[C@@H](O)[C@H]1O	pH 8.5, 25 °C, apparent, anoxic, with: L-Thr 10 mM	1530 ± 31

Some of these lines once more:
Molecule	substrate	conditions	kcat/Km [M⁻¹ s⁻¹]
acsA D449E/I222V (Pseudomonas chlororaphis)	CCCC(=O)O	pH 7	1330 ± 167
